Measurements of several laboratories.
Compare with care: the assays were run in different laboratories. Numbers after ± are the reported error.
Sequence of UniProt Q39204 (whole entry, looked up): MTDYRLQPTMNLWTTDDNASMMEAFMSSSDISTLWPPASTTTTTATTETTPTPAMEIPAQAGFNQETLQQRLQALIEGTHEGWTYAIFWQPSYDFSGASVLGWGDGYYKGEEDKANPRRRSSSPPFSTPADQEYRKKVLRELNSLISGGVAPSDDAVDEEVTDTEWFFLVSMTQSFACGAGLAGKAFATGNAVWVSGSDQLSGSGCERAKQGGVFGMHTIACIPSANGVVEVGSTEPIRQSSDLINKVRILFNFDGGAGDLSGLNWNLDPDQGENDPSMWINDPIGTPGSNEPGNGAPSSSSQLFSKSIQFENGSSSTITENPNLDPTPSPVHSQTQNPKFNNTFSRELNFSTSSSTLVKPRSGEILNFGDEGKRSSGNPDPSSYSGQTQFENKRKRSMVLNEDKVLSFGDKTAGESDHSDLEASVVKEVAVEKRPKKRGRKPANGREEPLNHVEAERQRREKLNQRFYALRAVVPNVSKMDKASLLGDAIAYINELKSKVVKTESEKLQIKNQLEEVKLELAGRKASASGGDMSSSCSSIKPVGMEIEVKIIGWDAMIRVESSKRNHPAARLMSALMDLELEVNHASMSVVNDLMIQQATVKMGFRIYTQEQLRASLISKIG
Sequence of UniProt Q9Y6Y9 (whole entry, looked up): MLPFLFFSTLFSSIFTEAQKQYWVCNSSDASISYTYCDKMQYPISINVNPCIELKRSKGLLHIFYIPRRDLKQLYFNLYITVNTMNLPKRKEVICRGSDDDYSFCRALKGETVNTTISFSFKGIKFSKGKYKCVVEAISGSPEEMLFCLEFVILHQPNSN
Sequence of UniProt Q9NZC7 (whole entry, looked up): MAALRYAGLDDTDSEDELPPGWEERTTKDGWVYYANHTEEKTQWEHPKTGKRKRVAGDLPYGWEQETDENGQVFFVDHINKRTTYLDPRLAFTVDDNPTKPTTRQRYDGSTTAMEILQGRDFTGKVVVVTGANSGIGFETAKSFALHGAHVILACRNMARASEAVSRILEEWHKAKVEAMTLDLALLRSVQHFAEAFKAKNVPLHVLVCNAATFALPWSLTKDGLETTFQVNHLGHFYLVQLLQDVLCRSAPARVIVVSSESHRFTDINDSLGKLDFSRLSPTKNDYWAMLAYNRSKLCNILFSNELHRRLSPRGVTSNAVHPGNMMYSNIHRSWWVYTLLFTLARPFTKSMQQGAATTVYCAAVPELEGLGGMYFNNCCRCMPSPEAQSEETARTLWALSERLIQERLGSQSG
Sequence of UniProt P30989 (whole entry, looked up): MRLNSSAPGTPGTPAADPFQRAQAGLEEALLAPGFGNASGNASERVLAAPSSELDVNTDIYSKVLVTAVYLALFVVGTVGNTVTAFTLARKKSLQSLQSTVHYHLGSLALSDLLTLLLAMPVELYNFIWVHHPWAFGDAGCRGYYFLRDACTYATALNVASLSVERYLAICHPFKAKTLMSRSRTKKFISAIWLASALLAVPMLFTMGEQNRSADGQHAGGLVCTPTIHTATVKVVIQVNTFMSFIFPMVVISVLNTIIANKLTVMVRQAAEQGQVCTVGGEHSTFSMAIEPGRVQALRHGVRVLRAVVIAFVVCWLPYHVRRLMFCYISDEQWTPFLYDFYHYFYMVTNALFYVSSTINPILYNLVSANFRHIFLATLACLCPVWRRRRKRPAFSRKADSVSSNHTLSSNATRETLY
Sequence of UniProt O55242 (whole entry, looked up): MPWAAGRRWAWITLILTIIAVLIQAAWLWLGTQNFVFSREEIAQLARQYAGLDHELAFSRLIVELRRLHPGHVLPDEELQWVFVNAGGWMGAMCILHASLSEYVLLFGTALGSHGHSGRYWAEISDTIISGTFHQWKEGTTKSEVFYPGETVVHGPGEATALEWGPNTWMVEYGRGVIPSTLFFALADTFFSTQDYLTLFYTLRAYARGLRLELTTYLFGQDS
Sequence of UniProt P21564 (whole entry, unmodified, looked up): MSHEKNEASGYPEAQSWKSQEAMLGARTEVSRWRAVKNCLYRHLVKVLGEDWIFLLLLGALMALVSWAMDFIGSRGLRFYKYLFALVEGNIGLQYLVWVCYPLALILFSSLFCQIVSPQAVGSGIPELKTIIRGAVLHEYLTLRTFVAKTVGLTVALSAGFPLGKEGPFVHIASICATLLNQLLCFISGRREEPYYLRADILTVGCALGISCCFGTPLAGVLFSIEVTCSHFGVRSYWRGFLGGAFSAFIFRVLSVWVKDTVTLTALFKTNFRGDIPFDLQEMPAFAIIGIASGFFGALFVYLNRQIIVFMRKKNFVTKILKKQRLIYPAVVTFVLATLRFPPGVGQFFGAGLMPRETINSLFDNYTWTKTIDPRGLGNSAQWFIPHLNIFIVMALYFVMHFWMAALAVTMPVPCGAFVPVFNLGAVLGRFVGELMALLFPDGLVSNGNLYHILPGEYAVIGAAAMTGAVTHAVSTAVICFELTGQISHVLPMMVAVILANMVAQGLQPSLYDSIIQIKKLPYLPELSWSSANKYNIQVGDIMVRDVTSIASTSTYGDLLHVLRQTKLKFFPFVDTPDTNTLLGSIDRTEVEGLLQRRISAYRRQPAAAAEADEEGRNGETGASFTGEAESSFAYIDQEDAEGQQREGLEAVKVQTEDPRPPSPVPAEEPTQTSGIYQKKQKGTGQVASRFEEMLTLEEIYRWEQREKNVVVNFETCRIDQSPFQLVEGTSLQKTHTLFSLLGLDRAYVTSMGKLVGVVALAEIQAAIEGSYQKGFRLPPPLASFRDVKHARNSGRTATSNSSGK
Sequence of UniProt Q07741 (whole entry, looked up): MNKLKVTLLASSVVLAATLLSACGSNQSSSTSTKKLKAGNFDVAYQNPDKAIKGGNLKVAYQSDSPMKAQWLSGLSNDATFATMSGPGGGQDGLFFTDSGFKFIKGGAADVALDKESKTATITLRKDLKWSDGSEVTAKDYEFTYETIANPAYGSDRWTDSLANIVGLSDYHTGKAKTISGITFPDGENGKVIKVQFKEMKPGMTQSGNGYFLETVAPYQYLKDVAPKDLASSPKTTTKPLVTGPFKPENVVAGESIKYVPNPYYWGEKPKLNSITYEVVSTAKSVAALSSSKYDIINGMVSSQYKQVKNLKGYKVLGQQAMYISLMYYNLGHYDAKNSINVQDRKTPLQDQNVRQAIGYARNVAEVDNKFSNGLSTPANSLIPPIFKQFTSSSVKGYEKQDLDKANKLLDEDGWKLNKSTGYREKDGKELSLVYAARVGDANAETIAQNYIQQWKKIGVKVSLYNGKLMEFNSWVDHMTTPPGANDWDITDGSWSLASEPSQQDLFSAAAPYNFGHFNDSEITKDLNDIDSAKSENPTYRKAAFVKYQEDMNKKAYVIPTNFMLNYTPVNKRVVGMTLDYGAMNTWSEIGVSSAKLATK
Sequence of UniProt Q02242 (whole entry, looked up): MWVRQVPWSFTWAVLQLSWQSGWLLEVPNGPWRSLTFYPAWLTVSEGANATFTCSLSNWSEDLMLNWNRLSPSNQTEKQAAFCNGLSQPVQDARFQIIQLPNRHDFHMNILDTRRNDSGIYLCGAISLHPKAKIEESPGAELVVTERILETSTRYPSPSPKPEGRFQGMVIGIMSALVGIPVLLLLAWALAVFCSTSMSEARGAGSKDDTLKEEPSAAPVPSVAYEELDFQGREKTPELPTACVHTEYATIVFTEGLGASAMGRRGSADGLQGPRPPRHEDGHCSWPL
Sequence of UniProt P53350 (whole entry, looked up): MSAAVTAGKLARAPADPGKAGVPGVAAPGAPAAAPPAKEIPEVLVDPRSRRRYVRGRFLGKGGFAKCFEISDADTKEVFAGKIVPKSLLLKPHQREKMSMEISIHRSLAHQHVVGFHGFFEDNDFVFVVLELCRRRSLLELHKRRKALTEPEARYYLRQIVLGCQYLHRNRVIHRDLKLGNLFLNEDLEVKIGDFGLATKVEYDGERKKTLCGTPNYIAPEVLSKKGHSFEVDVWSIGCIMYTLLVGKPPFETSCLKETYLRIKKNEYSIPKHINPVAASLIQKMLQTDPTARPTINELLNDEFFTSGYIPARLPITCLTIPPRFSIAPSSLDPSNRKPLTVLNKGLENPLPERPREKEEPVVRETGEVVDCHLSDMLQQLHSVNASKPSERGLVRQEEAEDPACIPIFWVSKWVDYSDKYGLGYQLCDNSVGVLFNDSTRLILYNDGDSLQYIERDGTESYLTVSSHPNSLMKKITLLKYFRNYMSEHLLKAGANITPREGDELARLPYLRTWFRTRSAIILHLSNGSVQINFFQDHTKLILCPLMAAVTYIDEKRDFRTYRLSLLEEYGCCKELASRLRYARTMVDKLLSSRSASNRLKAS
Sequence of UniProt P22455 (whole entry, looked up): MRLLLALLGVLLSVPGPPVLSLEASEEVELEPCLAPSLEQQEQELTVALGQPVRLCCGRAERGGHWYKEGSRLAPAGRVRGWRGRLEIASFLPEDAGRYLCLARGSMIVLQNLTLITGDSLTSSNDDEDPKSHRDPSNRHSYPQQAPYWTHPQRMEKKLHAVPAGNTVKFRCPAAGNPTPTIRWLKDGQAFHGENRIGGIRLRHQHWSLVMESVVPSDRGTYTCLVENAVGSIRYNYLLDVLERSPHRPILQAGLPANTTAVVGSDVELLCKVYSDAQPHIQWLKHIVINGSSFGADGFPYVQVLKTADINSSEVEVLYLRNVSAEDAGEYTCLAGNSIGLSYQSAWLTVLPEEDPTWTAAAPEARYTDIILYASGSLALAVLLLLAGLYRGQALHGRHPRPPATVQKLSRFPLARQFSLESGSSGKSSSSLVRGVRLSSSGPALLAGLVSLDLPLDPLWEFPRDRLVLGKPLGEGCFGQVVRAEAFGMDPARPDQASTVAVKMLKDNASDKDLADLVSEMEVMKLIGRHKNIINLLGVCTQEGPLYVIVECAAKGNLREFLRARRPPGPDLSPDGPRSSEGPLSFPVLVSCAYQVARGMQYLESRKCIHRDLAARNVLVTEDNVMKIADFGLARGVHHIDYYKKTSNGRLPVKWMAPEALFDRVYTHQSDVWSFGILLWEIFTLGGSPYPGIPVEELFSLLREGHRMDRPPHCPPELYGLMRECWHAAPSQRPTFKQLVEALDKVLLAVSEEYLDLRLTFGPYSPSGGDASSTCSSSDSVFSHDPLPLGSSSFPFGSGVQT

| Structure (SMILES) | target | test | test system | conditions | Kd |
| --- | --- | --- | --- | --- | --- |
| CC[C@H](C)[C@H](NC(=O)[C@@H](NC(=O)[C@H](Cc1c[nH]c2ccccc12)NC(=O)[C@H](CCC(=O)O)NC(=O)[C@H](CO)NC(=S)Nc1ccc2c(c1)C(=O)OC21c2ccc(O)cc2Oc2cc(O)ccc21)C(C)C)C(=O)N[C@H](C(=O)N[C@H](C(=O)N1CCC[C@H]1C(=O)N[C@@H](Cc1ccccc1)C(=O)N[C@@H](CC(C)C)C(=O)N[C@H](C(=O)N[C@@H](C)C(=O)N[C@@H](CC(C)C)C(=O)O)[C@@H](C)O)[C@@H](C)CC)C(C)C | Rgg transcriptional regulator (Streptococcus pneumoniae, UniProt A0A0E7KI02) | binder, fluorescence polarization | – | 20 min, pH 7.4, 20 °C, fluorescein-labelled peptide | 3.3 ± 0.2 µM |
| I/C=C/CN1CCN(CCc2ccc3c(c2)CCO3)CC1 [iodine-123 labelled] | Sigmar1 (Mus musculus, UniProt O55242) | saturation radioligand binding | mouse brain membranes | 180 min, 37 °C | 0.00024 µM |
| CC[C@H](C)[C@H](NC(=O)[C@@H]1CCCN1C(=O)[C@@H]1CCCN1C(=O)[C@@H]1CCCN1C(=O)[C@@H](NC(=O)[C@H](CC(N)=O)NC(=O)[C@H](Cc1ccccc1)NC(=O)[C@H](C)N)[C@@H](C)CC)C(=O)N[C@@H](Cc1ccc(O)cc1)C(=O)N[C@H](C(=O)N[C@@H](CO)C(=O)N[C@@H](CCCNC(=N)N)C(=O)N[C@@H](C)C(=O)NCC(=O)NCC(=O)NCC(=O)NCC(=O)NCC(=O)N[C@@H](Cc1c[nH]cn1)C(=O)N[C@@H](CO)C(=O)N1CCC[C@H]1C(=O)N1CCC[C@H]1C(=O)N1CCC[C@H]1C(=O)N[C@@H](C)C(=O)N[C@@H](Cc1ccc(O)cc1)C(=O)N[C@H](C(=O)N1CCC[C@H]1C(=O)N[C@@H](CCSC)C(=O)N[C@@H](CO)C(=O)O)[C@@H](C)O)[C@@H](C)O | WW domain-containing oxidoreductase, WW1-WW2 tandem domains (WWOX, Homo sapiens, UniProt Q9NZC7) | ITC | tandem WW1-WW2 domain | pH 7.8, 20 °C, some values lower limits only | 21 ± 1.6 µM |
| CC[C@H](C)[C@H](NC(=O)[C@H](CCCNC(=N)N)NC(=O)[C@H](CCCCN)NC(=O)[C@@H](NC(=O)[C@H](C)NC(=O)[C@H](CCCNC(=N)N)NC(=O)[C@H](CCC(N)=O)NC(=O)[C@H](CO)NC(=O)[C@H](CCCCN)NC(=O)[C@H](CC(N)=O)NC(=O)[C@@H](N)CCCNC(=N)N)[C@@H](C)O)C(=O)N[C@@H](CO)C(=O)N[C@@H](Cc1c[nH]cn1)C(=O)N[C@@H](CCSC)C(=O)N1CCC[C@H]1C(=O)N[C@@H](CO)C(=O)N[C@@H](CCCNC(=N)N)C(=O)N1CCC[C@H]1C(=O)N[C@@H](CCC(=O)O)C(=O)N[C@@H](CC(C)C)C(=O)N[C@@H](CO)C(=O)N[C@@H](C)C(=O)N[C@H](C(=O)N[C@@H](C)C(=O)N[C@H](C(=O)N[C@@H](CC(=O)O)C(=O)N[C@@H](CC(C)C)C(=O)N[C@@H](CCCNC(=N)N)C(=O)N[C@@H](CCCCN)C(=O)N[C@@H](CC(=O)O)C(=O)N[C@@H](CCCCN)C(=O)N[C@@H](C)C(=O)N[C@@H](CCCCN)C(=O)N[C@@H](COP(=O)(O)O)C(=O)N[C@@H](CSC/C=C(\C)CC/C=C(\C)CCC=C(C)C)C(=O)OC)[C@@H](C)O)C(C)C | YWHAZ (Homo sapiens, UniProt P63104) | cell-free assay, FP | – | pH 7.5 | 0.32 µM |
| CC[C@H](C)[C@H](N)C(=O)N[C@@H](CO)C(=O)N[C@@H](Cc1ccc(O)cc1)C(=O)NCC(=O)NCC(=O)N[C@@H](C)C(=O)N[C@@H](CC(=O)O)C(=O)N[C@@H](Cc1ccc(O)cc1)C(=O)N[C@@H](CCCCN)C(=O)O | Pdcd1 (Mus musculus, UniProt Q02242) | binding, MST | – | – | 57 µM |
| CSCC[C@H](NC(C)=O)C(=O)N[C@H]1CSCc2cc3cc(c2)CSC[C@@H](C(=O)N[C@H](C(=O)N[C@@H](C)C(=O)N[C@@H](Cc2ccc(O)cc2)C(=O)N[C@@H](CCCCN)C(=O)N[C@@H](Cc2ccc(O)cc2)C(=O)NCC(=O)N[C@@H](CO)C(=O)NCC(=O)N[C@@H](CO)C(=O)NCC(=O)N[C@@H](CO)C(=O)N[C@@H](CC(=O)O)C(=O)N[C@@H](Cc2ccc(O)cc2)C(=O)N[C@@H](CCCCN)C(=O)N[C@@H](CC(=O)O)C(=O)N[C@@H](CC(=O)O)C(=O)N[C@@H](CC(=O)O)C(=O)N[C@@H](CC(=O)O)C(=O)N[C@@H](CCCCN)C(N)=O)[C@@H](C)O)NC(=O)[C@H](Cc2ccccc2)NC(=O)[C@H](CCCCN)NC(=O)[C@H](CSC3)NC(=O)[C@H](Cc2ccccc2)NC(=O)[C@H](CC(N)=O)NC(=O)[C@H](CC(C)C)NC(=O)[C@H]([C@@H](C)O)NC1=O | FGFR4 (Homo sapiens, UniProt P22455) | binding, BLI | – | – | 1.31 µM |
| O=C(Cc1cccs1)N[C@@H](Cn1cc(C(=O)O)nn1)B(O)O | Beta-lactamase ADC-7 (Acinetobacter baumannii, UniProt Q6DRA1) | isothermal titration calorimetry | – | – | 0.59 µM |
| N[C@@H](CO)C(=O)N[C@@H](Cc1ccccc1)C(=O)N[C@@H](CO)C(=O)N[C@@H](CCC(=O)O)C(=O)O | LY96 (Homo sapiens, UniProt Q9Y6Y9) | binding, SPR | – | – | > 0.1 µM |
| CC(=O)NC(Cc1ccc(Br)c(Cl)c1)C(=O)N[C@@H](C)C(=O)N1CCC[C@H]1C(=O)N1CCC[C@H]1C(=O)N[C@@H](CCC(=O)O)C(=O)N[C@@H](Cc1c[nH]cn1)C(=O)N[C@@H](CO)C(=O)N[C@H](C(=O)N[C@@H](C)C(N)=O)[C@@H](C)OP(=O)(O)O (some centres unmarked) | Serine/threonine-protein kinase PLK1, polo-box (PLK1, Homo sapiens, UniProt P53350) | binding, MST | – | – | 0.00311 µM |
| CC(C)=CCC/C(C)=C/CC/C(C)=C/C(=O)O | Juvenile hormone acid O-methyltransferase (JHAMT, Bombyx mori, UniProt Q767F1) | binding, fluorescence binding | – | pH 8.0, 25 °C, 200 mM NaCl | 0.2 ± 0.04 µM |
| CC[C@H](C)[C@H](NC(=O)[C@H](CC(C)C)NC(=O)[C@H](CC(C)C)NC(=O)CNC(=O)[C@H](CCCCN)NC(=O)[C@H](C)NC(=O)[C@H](CC(C)C)NC(=O)[C@H](CC(C)C)NC(=O)[C@H](CCCCN)NC(=O)[C@H](Cc1c[nH]c2ccccc12)NC(=O)[C@@H](N)CC(N)=O)C(=O)N[C@@H](CCCNC(=N)N)C(=O)N[C@@H](CCC(=O)O)C(=O)N[C@@H](CCCNC(=N)N)C(=O)N[C@@H](CC(C)C)C(=O)N[C@@H](CCCCN)C(=O)N[C@@H](CCCNC(=N)N)C(=O)O | Centrin-1, N-terminal 21 residues deleted (CEN1, Toxoplasma gondii, UniProt A0A125YHX7) | binding, ITC | – | pH 7.5, 25 °C, together with: 5 mM CaCl2 | 0.396 ± 0.0609 µM |
| N=C(N)NCCC[C@H](NC(=O)[C@H](Cc1ccccc1)NC(=O)[C@@H]1CCCN1C(=O)[C@H](CO)NC(=O)[C@H](Cc1ccccc1)NC(=O)CNC(=O)[C@@H]1CCCN1C(=O)[C@@H]1CCCN1C(=O)[C@@H](N)CCCNC(=N)N)C(=O)N[C@@H](CCCCNS(=O)(=O)c1ccc(C2=c3cc4c5c(c3Oc3c2cc2c6c3CCCN6CCC2)CCC[N+]=5CCC4)c(S(=O)(=O)[O-])c1)C(=O)O | Oligopeptide-binding protein OppA (oppA, Lactococcus lactis subsp. lactis, UniProt Q07741) | binding, fluorescence anisotropy | – | pH 6.5, 30 °C, together with: dye-labelled peptide | 19 ± 1 µM |
| CC[C@H](C)[C@H](NC(=O)[C@H](Cc1ccc(O)cc1)NC(=O)[C@@H]1CCCN1C(=O)[C@H](CCCCN)NC(=O)[C@H](CCCCN)NC(=O)CCNC(=O)CCNC(=O)[C@H](CCC(=O)NCCC(=O)NCCC(=O)N[C@@H](Cc1ccc(OCC(=O)N[C@@H](Cc2ccccc2)C(=O)NCCCC[C@H](NC(=O)N[C@@H](CCC(=O)O)C(=O)O)C(=O)O)cc1)C(=O)O)NC(=O)CCNC(=O)CCNC(=O)CN1CCN(CC(=O)O)CCN(CC(=O)O)CCN(CC(=O)O)CC1)C(=O)N[C@@H](CC(C)C)C(=O)O [gallium-68 labelled] | NTSR1 (Homo sapiens, UniProt P30989) | saturation binding | PC3-PIP cells | 2 h, 4 °C | 0.157 ± 0.071 µM |
| CC(C)C[C@H](NC(=O)[C@H](CCCNC(=N)N)NC(=O)[C@H](CCC(=O)O)NC(=O)[C@H](CCCCN)NC(=O)[C@H](CCCNC(=N)N)NC(=O)[C@H](CCCCN)NC(=O)[C@H](CCC(=O)O)NC(=O)[C@H](CC(C)C)NC(=O)[C@H](Cc1ccccc1)NC(=O)[C@H](CCCNC(=N)N)NC(=O)[C@H](C)NC(=O)[C@H](CC(C)C)NC(=O)[C@H](CO)NC(=O)[C@H](C)NC(=O)[C@H](CCCCN)NC(=O)[C@H](CCCNC(=N)N)NC(=O)[C@H](C)NC(=O)[C@H](CCC(N)=O)NC(=O)[C@@H]1CCCN1C(=O)[C@@H](NC(=O)[C@H](CO)NC(=O)c1ccc2c(c1)C(=O)OC21c2ccc(N(C)C)cc2Oc2cc(N(C)C)ccc21)C(C)C)C(=O)O | Transcription factor MYC2 (MYC2, Arabidopsis thaliana, UniProt Q39204) | binding, fluorescence anisotropy | – | pH 8.0, MYC2 residues 55-259 | 3.6 ± 0.8 µM |
| CC[C@H](C)[C@H](NC(=O)[C@H](CCCCN)NC(=O)[C@H](Cc1ccccc1)NC(=O)[C@H](CCCCNC(=O)[C@H](CC(C)C)NC(=O)[C@@H]1CCCN1C(=O)[C@H](CCCCN)NC(=O)CCS[C@@H]1O[C@H](CO)[C@H](O)[C@H](O)[C@H]1O)NC(=O)[C@H](CC(C)C)NC(=O)[C@@H]1CCCN1C(=O)[C@H](CCCCN)NC(=O)CCS[C@@H]1O[C@H](CO)[C@H](O)[C@H](O)[C@H]1O)C(N)=O | lecA (Pseudomonas aeruginosa, UniProt Q05097) | binding, ITC | – | pH 7.5 | 1.06 µM |
| CC(=O)NC1C(O)OC(CO)C(OC2OC(CO)C(OC3OC(CO)C(O)C(O)C3O)C(O)C2O)C1O (centres unmarked) | sly (Streptococcus suis, UniProt Q55996) | binding | – | – | 0.359 µM |
| O=C(O)COc1ccc(Cl)cc1 | Chloride channel protein (Torpedo marmorata, UniProt P21564, C212S) | ion current, blocker, inside-out patch clamp | – | intracellular, extrapolated to 0 mV, together with: 100 mM extracellular Cl− | 45000 µM |
